Experimental data of several laboratories.
A part holds a random share of what one study measured.
UniProt P14416, sequence (whole entry, looked up): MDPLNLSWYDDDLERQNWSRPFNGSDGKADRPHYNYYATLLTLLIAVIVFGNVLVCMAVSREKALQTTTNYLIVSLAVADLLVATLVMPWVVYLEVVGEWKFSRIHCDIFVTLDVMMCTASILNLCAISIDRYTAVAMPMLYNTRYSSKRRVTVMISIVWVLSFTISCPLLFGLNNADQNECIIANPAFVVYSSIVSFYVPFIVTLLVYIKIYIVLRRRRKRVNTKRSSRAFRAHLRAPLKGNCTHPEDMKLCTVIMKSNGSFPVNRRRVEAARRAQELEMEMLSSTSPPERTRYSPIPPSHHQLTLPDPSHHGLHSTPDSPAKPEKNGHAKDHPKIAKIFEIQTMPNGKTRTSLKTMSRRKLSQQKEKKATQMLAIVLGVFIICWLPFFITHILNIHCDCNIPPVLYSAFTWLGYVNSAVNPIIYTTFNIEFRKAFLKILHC
UniProt P41595, sequence (whole entry, looked up): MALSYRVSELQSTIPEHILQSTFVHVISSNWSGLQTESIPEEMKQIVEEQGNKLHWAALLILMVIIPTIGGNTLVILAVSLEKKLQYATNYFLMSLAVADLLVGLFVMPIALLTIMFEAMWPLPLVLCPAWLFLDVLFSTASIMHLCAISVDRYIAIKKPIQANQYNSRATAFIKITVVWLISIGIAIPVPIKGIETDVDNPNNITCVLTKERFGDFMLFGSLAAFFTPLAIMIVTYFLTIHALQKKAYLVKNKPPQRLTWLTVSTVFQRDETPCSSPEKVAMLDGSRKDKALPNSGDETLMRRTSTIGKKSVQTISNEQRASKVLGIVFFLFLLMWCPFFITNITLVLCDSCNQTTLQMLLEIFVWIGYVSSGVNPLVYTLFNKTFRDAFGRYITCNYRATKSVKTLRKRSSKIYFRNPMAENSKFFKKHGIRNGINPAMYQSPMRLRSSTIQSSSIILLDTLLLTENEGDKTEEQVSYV
UniProt P46098, sequence (whole entry, looked up): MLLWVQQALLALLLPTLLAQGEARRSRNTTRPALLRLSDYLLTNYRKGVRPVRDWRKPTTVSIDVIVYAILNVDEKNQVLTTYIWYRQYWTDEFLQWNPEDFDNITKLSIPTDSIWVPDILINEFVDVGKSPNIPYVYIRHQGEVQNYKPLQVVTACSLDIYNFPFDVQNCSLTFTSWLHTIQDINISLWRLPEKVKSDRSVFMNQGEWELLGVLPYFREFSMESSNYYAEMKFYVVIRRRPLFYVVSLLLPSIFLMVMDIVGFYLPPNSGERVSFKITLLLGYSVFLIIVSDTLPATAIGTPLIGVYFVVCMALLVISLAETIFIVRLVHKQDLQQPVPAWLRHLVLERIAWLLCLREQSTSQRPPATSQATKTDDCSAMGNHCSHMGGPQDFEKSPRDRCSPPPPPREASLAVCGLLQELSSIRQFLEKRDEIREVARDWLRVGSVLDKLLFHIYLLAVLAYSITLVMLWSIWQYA
UniProt P08912, sequence (whole entry, looked up): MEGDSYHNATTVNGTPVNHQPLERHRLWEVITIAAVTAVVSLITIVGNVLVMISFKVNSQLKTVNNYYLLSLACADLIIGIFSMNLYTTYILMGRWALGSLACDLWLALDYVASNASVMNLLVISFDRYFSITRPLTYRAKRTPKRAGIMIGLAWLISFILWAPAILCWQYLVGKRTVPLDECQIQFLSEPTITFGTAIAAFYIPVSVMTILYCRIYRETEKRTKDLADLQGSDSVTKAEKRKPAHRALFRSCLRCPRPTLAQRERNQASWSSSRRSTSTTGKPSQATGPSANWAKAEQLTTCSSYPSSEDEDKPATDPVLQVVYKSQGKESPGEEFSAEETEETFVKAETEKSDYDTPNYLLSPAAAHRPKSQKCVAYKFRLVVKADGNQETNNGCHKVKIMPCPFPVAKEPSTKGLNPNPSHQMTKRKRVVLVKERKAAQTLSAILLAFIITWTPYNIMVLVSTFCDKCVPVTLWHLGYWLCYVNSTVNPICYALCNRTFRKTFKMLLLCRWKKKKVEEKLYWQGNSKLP

Sample 1
SMILES: O=C1CCC(N2Cc3cc(C4CCN(Cc5ccccc5)CC4)ccc3C2=O)C(=O)N1 (stereo not drawn)
Medium: plasma
For male Sprague-Dawley rat; oral, 3 mg/kg, 4.98 min: concentration read 3.86 ng/mL.
male CD-1 mouse; oral, 3 mg/kg, 30 min — concentration: 273 ng/mL.
For male Sprague-Dawley rat; intravenous, 1 mg/kg, 8 h: concentration read 7.65 ng/mL.
The concentration was 48.9 ng/mL (male Sprague-Dawley rat; oral, 3 mg/kg, 30 min).
male Sprague-Dawley rat; oral, 3 mg/kg, 6 h — concentration: 15.3 ng/mL.
It gave 5.04 ng/mL for concentration (male CD-1 mouse; oral, 3 mg/kg, 8 h).
It gave 41.8 ng/mL for concentration (male Sprague-Dawley rat; intravenous, 1 mg/kg, 2 h).
The concentration was 112 ng/mL (male Sprague-Dawley rat; intravenous, 1 mg/kg, 4.98 min).
The concentration was 61.8 ng/mL (male Sprague-Dawley rat; oral, 3 mg/kg, 4 h).

Sample 2
SMILES: Cc1nc(C2CCN(C(=O)c3ccc(OC(F)(F)F)cc3N)CC2)c2ncc(N3CCN(C)CC3)cc2n1
Effect on: binding
Method: radioligand binding
Tested at: 10 µM
5-hydroxytryptamine receptor 3A (HTR3A, Homo sapiens, UniProt P46098) — inhibition: 6.25%.
For Muscarinic acetylcholine receptor M5 (CHRM5, Homo sapiens, UniProt P08912): inhibition read -3.81%.
For 5-hydroxytryptamine receptor 2B (HTR2B, Homo sapiens, UniProt P41595): inhibition read -1.28%.
The inhibition was 2.97% (D(2) dopamine receptor (DRD2, Homo sapiens, UniProt P14416)).

Sample 3
Target: Beta-1 adrenergic receptor (ADRB1, Homo sapiens, UniProt P08588)
UniProt P08588, sequence (whole entry, looked up): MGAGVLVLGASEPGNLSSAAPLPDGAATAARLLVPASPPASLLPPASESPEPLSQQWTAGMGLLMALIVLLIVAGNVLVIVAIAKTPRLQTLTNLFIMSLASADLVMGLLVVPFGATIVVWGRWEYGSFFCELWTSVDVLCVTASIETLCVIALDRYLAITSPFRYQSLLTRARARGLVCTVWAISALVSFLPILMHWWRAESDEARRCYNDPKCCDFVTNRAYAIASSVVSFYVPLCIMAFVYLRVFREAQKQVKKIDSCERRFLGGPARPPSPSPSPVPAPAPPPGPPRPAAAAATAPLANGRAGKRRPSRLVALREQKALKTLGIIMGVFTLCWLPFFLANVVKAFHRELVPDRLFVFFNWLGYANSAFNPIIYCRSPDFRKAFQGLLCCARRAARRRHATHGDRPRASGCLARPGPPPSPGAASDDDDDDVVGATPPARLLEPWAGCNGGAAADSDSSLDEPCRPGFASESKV
Mode: agonist
`O=c1oc(Cl)c(Cl)c2ccccc12` has an EC50 of at least 100 µM.
`OC(c1ccccc1)c1nc(Nc2ccc(N3CCOCC3)cc2)n[nH]1` (stereo not drawn) has an EC50 of at least 100 µM.
`COc1cc(CN2CCOCC2)ccc1OCC(O)CN1CCSCC1` (stereo not drawn) gave an EC50 of at least 100 µM.
For `COC(=O)[C@H](Cc1cccc(C(=N)N)c1)[C@@H](C)NC(=O)c1ccc(-c2cc[n+]([O-])cc2)cc1`, the EC50 was at least 100 µM.
`CC(=O)Oc1ccc2c(c1)Oc1cc(OC(C)=O)ccc1C21OC(=O)c2ccccc21` has an EC50 of at least 100 µM.
With `OCCc1ccc(O)cc1` the EC50 was at least 100 µM.
For `Cc1nc(Nc2cnn(C3CCNCC3)c2)nc2c1N(C)C(=O)c1cc3ccccc3cc1N2C`, the EC50 was at least 100 µM.

Sample 4
Cell line: mouse MPNST tumor cells
Method: high-content nuclear imaging
Refers to: cell number
Tested at: 10 µM
Time: 12 h
Notes: mean of 2 replicates
Reference: plate mean
Reading: higher = more cells
The nuclei count of `CON(C)C(=O)[C@H](O)[C@H](Cc1ccccc1)NC(=O)c1cc2cc(Cl)ccc2[nH]1` is reported as 0.25 z-score.
`O=C(O)c1ccccc1Nc1ccc(CCc2ccc(Cl)c(Cl)c2)cc1` gave a nuclei count of 1.95 z-score.
For `NN1CCOC1=O`, the nuclei count was -0.657 z-score.
With `COc1cccc(-n2nc(C(=O)O)cc2-c2ccc(C3CCCCC3)c(Cl)c2)c1` the nuclei count was 0.494 z-score.
For `CCCCCCNC(=O)Nc1ccc(S(=O)(=O)Nc2ccc(CCNC[C@H](O)COc3ccc(O)cc3)cc2)cc1`, the nuclei count was 1.52 z-score.
For `CN(c1ccccc1CNc1nc(Nc2ccc3c(c2)CC(=O)N3)ncc1C(F)(F)F)S(C)(=O)=O`, the nuclei count was -3.83 z-score.
With `O=C(CNC(=O)c1cccc(C(F)(F)F)c1)N[C@@H]1CCN(Cc2ccc(Cl)cc2)C1` the nuclei count was 5.85 z-score.
